Assay results of several laboratories.
Every numbered part comes from another study and shows a few of its results, in no order. Several values in a cell are separate wells, animals, samples, runs or records.
Chain of UniProt Q9UQB9 (whole entry, looked up): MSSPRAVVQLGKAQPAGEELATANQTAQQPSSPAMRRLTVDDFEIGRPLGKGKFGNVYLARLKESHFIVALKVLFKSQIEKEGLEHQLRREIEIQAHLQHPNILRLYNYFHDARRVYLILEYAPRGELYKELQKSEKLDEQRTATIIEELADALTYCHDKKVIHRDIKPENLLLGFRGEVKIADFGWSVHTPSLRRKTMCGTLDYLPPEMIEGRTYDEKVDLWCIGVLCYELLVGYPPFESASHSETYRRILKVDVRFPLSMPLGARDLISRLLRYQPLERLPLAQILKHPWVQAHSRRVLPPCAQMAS
Chain of UniProt Q16816 (whole entry, looked up): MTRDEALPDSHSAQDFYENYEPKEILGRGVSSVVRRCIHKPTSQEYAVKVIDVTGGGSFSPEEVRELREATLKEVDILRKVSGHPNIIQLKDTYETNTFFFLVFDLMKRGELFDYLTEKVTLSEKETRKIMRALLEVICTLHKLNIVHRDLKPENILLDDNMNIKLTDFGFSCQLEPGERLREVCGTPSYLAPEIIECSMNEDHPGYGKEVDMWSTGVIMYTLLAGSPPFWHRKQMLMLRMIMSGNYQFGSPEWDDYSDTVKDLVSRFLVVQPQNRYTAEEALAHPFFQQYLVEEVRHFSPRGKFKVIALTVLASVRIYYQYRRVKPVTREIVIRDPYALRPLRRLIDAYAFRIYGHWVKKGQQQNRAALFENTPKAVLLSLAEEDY
Chain of UniProt Q9H0K1 (whole entry, looked up): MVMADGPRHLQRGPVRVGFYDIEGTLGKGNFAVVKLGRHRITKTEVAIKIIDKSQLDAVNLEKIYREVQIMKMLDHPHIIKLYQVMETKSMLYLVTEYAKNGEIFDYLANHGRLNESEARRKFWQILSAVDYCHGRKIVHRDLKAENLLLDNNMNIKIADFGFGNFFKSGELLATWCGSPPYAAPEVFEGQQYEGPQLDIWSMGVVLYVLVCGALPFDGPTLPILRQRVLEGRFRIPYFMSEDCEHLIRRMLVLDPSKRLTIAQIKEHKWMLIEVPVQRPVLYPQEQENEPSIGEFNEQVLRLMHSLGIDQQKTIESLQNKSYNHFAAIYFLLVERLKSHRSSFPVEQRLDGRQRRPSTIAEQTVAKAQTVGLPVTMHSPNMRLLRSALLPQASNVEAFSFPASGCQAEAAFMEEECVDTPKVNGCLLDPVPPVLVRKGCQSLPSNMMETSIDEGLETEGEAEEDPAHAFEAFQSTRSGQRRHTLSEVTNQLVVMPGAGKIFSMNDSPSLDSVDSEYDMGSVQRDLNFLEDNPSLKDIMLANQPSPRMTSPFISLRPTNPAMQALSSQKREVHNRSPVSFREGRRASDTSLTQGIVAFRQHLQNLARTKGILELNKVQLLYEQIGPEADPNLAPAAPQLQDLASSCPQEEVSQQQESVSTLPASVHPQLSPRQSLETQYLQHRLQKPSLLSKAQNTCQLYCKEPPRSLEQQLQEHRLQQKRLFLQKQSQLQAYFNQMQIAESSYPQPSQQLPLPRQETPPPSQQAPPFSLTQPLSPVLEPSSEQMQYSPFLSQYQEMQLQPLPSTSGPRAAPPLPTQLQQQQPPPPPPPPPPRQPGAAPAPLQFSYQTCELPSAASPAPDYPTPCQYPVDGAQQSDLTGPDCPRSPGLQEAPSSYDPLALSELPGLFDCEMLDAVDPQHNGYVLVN
Chain of UniProt P29317 (whole entry, looked up): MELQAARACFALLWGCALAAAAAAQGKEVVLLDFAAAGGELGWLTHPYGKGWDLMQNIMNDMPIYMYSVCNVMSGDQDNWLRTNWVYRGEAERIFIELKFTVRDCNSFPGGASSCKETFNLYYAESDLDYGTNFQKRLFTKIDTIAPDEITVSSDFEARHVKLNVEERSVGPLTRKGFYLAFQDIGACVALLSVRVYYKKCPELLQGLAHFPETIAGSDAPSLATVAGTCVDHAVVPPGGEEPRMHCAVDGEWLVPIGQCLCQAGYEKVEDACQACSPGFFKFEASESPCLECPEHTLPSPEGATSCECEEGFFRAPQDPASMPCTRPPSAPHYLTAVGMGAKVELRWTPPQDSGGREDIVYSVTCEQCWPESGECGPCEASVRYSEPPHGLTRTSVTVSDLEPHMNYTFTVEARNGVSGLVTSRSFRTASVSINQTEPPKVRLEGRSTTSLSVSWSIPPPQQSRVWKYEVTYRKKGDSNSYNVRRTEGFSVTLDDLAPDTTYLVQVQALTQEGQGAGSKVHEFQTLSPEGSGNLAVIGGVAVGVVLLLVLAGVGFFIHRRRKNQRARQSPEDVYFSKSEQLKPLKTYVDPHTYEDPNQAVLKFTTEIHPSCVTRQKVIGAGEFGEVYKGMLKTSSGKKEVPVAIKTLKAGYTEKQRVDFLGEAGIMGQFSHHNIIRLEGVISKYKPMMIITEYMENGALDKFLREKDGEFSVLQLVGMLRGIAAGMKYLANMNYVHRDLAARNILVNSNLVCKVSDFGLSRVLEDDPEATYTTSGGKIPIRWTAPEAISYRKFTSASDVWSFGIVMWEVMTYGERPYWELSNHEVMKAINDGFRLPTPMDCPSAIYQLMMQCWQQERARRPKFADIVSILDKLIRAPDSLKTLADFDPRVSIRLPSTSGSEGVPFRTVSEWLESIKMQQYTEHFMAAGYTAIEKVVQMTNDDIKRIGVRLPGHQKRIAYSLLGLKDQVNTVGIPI
Chain of UniProt Q9NRM7 (whole entry, looked up): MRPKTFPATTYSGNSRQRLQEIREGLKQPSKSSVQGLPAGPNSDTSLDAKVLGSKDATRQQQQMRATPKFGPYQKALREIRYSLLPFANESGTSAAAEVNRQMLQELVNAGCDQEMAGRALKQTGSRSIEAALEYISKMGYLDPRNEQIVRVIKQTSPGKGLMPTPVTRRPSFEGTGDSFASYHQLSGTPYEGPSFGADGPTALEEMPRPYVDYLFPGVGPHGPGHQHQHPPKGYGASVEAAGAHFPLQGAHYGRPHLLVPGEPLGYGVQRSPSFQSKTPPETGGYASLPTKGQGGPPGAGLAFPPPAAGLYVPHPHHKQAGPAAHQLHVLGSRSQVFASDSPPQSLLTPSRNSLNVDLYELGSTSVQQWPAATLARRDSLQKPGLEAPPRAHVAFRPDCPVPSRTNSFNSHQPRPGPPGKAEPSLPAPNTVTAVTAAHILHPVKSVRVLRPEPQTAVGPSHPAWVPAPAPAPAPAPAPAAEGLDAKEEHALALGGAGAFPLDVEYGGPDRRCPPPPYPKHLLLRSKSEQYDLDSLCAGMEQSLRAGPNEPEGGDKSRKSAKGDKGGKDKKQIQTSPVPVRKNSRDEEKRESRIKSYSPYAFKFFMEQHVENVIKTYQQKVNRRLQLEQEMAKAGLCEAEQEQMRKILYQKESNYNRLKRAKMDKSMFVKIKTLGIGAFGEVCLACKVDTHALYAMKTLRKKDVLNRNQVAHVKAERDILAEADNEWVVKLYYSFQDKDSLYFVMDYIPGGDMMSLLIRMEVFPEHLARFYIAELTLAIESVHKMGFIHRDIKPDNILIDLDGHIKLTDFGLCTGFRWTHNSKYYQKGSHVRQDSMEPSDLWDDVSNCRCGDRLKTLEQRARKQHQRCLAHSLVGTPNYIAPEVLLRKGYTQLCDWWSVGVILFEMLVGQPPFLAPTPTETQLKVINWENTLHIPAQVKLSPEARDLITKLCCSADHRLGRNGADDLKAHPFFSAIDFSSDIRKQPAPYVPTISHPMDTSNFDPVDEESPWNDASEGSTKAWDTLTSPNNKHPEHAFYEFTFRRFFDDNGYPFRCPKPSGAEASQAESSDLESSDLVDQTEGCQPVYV
Chain of UniProt Q8N4C8 (whole entry, looked up): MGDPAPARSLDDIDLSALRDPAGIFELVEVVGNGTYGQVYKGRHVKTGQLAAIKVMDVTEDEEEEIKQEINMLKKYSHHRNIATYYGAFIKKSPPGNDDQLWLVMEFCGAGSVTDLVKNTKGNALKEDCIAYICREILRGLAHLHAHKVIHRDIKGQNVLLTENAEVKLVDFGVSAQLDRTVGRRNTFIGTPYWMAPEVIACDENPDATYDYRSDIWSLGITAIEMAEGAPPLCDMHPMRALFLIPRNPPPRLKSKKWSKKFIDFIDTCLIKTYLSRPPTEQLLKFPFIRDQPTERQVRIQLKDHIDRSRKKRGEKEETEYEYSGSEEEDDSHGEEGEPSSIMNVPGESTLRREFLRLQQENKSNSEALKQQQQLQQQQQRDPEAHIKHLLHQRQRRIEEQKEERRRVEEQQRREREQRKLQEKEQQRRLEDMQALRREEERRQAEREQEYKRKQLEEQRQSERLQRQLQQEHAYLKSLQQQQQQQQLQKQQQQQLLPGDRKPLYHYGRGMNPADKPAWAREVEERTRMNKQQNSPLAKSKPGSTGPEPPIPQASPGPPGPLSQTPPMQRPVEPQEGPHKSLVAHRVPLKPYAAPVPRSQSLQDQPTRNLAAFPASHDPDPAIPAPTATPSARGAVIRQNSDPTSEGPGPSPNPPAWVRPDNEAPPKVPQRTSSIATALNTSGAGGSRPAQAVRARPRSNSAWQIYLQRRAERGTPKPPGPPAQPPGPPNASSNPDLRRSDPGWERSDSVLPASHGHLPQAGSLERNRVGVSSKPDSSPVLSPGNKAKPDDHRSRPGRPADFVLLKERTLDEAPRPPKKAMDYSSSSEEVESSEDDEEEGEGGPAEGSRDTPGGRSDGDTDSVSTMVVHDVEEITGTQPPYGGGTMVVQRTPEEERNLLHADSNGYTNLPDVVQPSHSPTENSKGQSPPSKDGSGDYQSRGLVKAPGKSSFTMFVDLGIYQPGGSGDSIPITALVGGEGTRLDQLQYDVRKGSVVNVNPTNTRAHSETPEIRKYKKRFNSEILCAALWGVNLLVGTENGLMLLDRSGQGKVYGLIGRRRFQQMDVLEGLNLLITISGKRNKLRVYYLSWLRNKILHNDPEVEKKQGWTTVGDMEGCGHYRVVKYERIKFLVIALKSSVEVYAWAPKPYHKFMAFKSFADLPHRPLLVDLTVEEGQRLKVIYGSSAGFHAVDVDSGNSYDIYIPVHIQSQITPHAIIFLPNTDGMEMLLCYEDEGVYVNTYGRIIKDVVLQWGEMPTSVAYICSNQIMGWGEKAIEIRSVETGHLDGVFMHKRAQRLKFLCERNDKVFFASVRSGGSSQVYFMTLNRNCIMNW

Study 1
SMILES: CC(C)(C(=O)O)[C@H](NC(=O)Cc1cccc(I)c1)c1ccc2oc(=O)[nH]c2c1
Method: Incucyte 3D growth
Concentration: 30 µM
Direction: higher = more growth
| cell line | time | spheroid area |
| --- | --- | --- |
| IPC-298 | 180 h | 2.79e+07 a.u. and 2.65e+07 a.u. and 2.14e+07 a.u. and 3.05e+07 a.u. and 3.53e+07 a.u. and 2.8e+07 a.u. |
| PC-9 | 54 h | 4.58e+08 a.u. and 4.31e+08 a.u. and 4.39e+08 a.u. and 4.37e+08 a.u. and 4.43e+08 a.u. and 4.32e+08 a.u. |
| PC-9 | 144 h | 1.14e+09 a.u. and 1.15e+09 a.u. and 1.12e+09 a.u. and 1.09e+09 a.u. and 1.06e+09 a.u. |
| IPC-298 | 54 h | 2.99e+07 a.u. and 2.22e+07 a.u. and 3.06e+07 a.u. and 2.7e+07 a.u. and 2.58e+07 a.u. and 2.37e+07 a.u. |
| A375 | 204 h | 1.07e+08 a.u. and 1.21e+08 a.u. and 1.19e+08 a.u. and 1.25e+08 a.u. and 1.41e+08 a.u. and 1.22e+08 a.u. |
| A375 | 96 h | 5.3e+07 a.u. and 5.67e+07 a.u. and 7.01e+07 a.u. and 6.91e+07 a.u. and 5.35e+07 a.u. and 6.17e+07 a.u. |
| A375 | 30 h | 8.78e+06 a.u. and 1.44e+07 a.u. and 1.51e+07 a.u. and 1.45e+07 a.u. and 9.04e+06 a.u. and 1.64e+07 a.u. |
| A375 | 288.52 h | 2.03e+08 a.u. and 1.75e+08 a.u. and 1.77e+08 a.u. and 1.84e+08 a.u. and 2.01e+08 a.u. |
| A375 | 390.52 h | 1.78e+08 a.u. and 1.56e+08 a.u. and 1.64e+08 a.u. and 1.68e+08 a.u. and 1.89e+08 a.u. and 1.74e+08 a.u. |
| MEL-JUSO | 222.52 h | 1.66e+07 a.u. and 2.54e+07 a.u. and 1.58e+07 a.u. and 2.28e+07 a.u. and 1.55e+07 a.u. and 1.72e+07 a.u. |
| NCI-H358 | 288 h | 1.28e+07 a.u. and 1.23e+07 a.u. |
| NCI-H358 | 90 h | 4.33e+06 a.u. and 3.38e+06 a.u. and 4.42e+06 a.u. and 4.89e+06 a.u. and 3.94e+06 a.u. and 3.69e+06 a.u. |

Study 2
Cell line: A-375
Concentration: 100 µM
Time: 36 h
| SMILES | viability |
| --- | --- |
| Brc1c(NC2=NCCN2)ccc2nccnc12 | 109% |
| OCc1ccc(O[C@@H]2O[C@H](CO)[C@@H](O)[C@H](O)[C@H]2O)cc1 | 121% |
| CC1CC(OC(=O)C(O)c2ccccc2)CC(C)(C)C1 (stereo not drawn) | -1.35% |
| O=C1O[C@H]([C@@H](O)CO)C(O)=C1O | 107% |
| CCN(CC)CCOC(=O)C(c1ccccc1)c1ccccc1 | 53.3% |
| CC(=O)c1ccc2c(c1)N(CCCN1CCC(CCO)CC1)c1ccccc1S2 | 1.41% |
| C=C1CCN([C@H](C)[C@](O)(Cn2cncn2)c2ccc(F)cc2F)CC1 | 11.4% |
| CO[C@H]1/C=C/O[C@@]2(C)Oc3c(C)c(O)c4c(c3C2=O)C2=NC3(CCN(CC(C)C)CC3)NC2=C(NC(=O)/C(C)=C\C=C\[C@H](C)[C@H](O)[C@@H](C)[C@@H](O)[C@@H](C)[C@H](OC(C)=O)[C@@H]1C)C4=O | 16.2% |
| Nc1c2c(nc3ccccc13)CCCC2 | 58.2% |
| CNC(=C[N+](=O)[O-])NCCSCc1csc(CN(C)C)n1 | 108% |
| CN(C)CCCOc1nn(Cc2ccccc2)c2ccccc12 | 34.1% |
| Cc1cccc(N(C)C(=S)Oc2ccc3ccccc3c2)c1 | 98.9% |
| CC1(C)S[C@@H]2[C@H](NC(=O)[C@H](N)c3ccc(O)cc3)C(=O)N2[C@H]1C(=O)O | 79.3% and 112% |

Study 3
SMILES: CCN(CC)CCNC(=O)c1c(C)[nH]c(/C=C2\C(=O)Nc3ccc(Cl)cc32)c1C
Effect on: enzyme activity
Mode: inhibitor
Concentration: 0.5 µM
Relative to: control
| target | remaining activity [%] |
| --- | --- |
| Serine/threonine-protein kinase SIK2 (SIK2, Homo sapiens, UniProt Q9H0K1) | 42.7 |
| Calcium/calmodulin-dependent protein kinase type 1 (CAMK1, Homo sapiens, UniProt Q14012) | 75.9 |
| Protein kinase C theta type (PRKCQ, Homo sapiens, UniProt Q04759) | 105 |
| Tyrosine-protein kinase JAK1 (JAK1, Homo sapiens, UniProt P23458) | 65.8 |
| SRSF protein kinase 1 (SRPK1, Homo sapiens, UniProt Q96SB4) | 95.9 |
| Ephrin type-A receptor 6 (EPHA6, Homo sapiens, UniProt Q9UF33) | 45.7 |
| Casein kinase I isoform delta (CSNK1D, Homo sapiens, UniProt P48730) | 49.7 |
| Ephrin type-A receptor 2 (EPHA2, Homo sapiens, UniProt P29317) | 93.5 |
| Tyrosine-protein kinase receptor TYRO3 (TYRO3, Homo sapiens, UniProt Q06418) | 23.2 |
| Mitogen-activated protein kinase kinase kinase 20 (MAP3K20, Homo sapiens, UniProt Q9NYL2) | 95.8 |
| Tyrosine-protein kinase Tec (TEC, Homo sapiens, UniProt P42680) | 102 |
| Serine/threonine-protein kinase PAK 6 (PAK6, Homo sapiens, UniProt Q9NQU5) | 101 |
| Serine/threonine-protein kinase Sgk2 (SGK2, Homo sapiens, UniProt Q9HBY8) | 62.8 |
| Vascular endothelial growth factor receptor 1 (FLT1, Homo sapiens, UniProt P17948) | 34.4 |
| Dual specificity protein kinase CLK2 (CLK2, Homo sapiens, UniProt P49760) | 15.8 |
| Serine/threonine-protein kinase PAK 1 (PAK1, Homo sapiens, UniProt Q13153) | 93.4 |
| Insulin-like growth factor 1 receptor (IGF1R, Homo sapiens, UniProt P08069) | 35.2 |
| Cyclin-dependent kinase 2, with cyclin E (CDK2, Homo sapiens, UniProt P24941) | 90 |
| Calcium/calmodulin-dependent protein kinase kinase 1 (CAMKK1, Homo sapiens, UniProt Q8N5S9) | 47.7 |
| Protein kinase C zeta type (PRKCZ, Homo sapiens, UniProt Q05513) | 104 |
| Ribosomal protein S6 kinase alpha-3 (RPS6KA3, Homo sapiens, UniProt P51812) | 15.1 |
| Dual specificity protein kinase CLK1 (CLK1, Homo sapiens, UniProt P49759) | 34.2 |

Study 4
Compound: CO[C@@H](C)c1c(Nc2ccc([C@@H](N(C)C(=O)C3CCS(=O)(=O)CC3)C(F)(F)F)cc2)cnc2cc(Cl)nn12
Effect on: cell-free assay
Method: competition with immobilised ligand
Concentration: 1 µM
| target | remaining binding |
| --- | --- |
| Receptor-type tyrosine-protein kinase FLT3 (FLT3, Homo sapiens, UniProt P36888, D835V/ITD) | 59% |
| Serine/threonine-protein kinase Nek10 (NEK10, Homo sapiens, UniProt Q6ZWH5) | 100% |
| Aurora kinase C (AURKC, Homo sapiens, UniProt Q9UQB9) | 85% |
| ALK tyrosine kinase receptor (ALK, Homo sapiens, UniProt Q9UM73, L1196M) | 94% |
| Serine/threonine-protein kinase PAK 5 (PAK5, Homo sapiens, UniProt Q9P286) | 100% |
| Non-receptor tyrosine-protein kinase TYK2, JH2 (TYK2, Homo sapiens, UniProt P29597) | 100% |
| Phosphorylase b kinase gamma catalytic chain, skeletal muscle/heart isoform (PHKG1, Homo sapiens, UniProt Q16816) | 96% |
| Mitogen-activated protein kinase kinase kinase 15 (MAP3K15, Homo sapiens, UniProt Q6ZN16) | 100% |
| Serine/threonine-protein kinase RIO2 (RIOK2, Homo sapiens, UniProt Q9BVS4) | 89% |
| Serine/threonine-protein kinase haspin (HASPIN, Homo sapiens, UniProt Q8TF76) | 100% |
| Tyrosine-protein kinase ITK/TSK (ITK, Homo sapiens, UniProt Q08881) | 94% |
| Focal adhesion kinase 1 (PTK2, Homo sapiens, UniProt Q05397) | 90% |
| Misshapen-like kinase 1 (MINK1, Homo sapiens, UniProt Q8N4C8) | 100% |
| Ephrin type-B receptor 2 (EPHB2, Homo sapiens, UniProt P29323) | 92% |
| BMP-2-inducible protein kinase (BMP2K, Homo sapiens, UniProt Q9NSY1) | 91% |
| Serine/threonine-protein kinase LATS2 (LATS2, Homo sapiens, UniProt Q9NRM7) | 88% |

Excerpt of the above (study 3):
| target | remaining activity [%] |
| --- | --- |
| Cyclin-dependent kinase 2, with cyclin E (CDK2, Homo sapiens, UniProt P24941) | 90 |
| Serine/threonine-protein kinase PAK 1 (PAK1, Homo sapiens, UniProt Q13153) | 93.4 |
| Vascular endothelial growth factor receptor 1 (FLT1, Homo sapiens, UniProt P17948) | 34.4 |
